# Assay results gathered from unrelated publications.
# Compare with care: the assays were run in different laboratories. ± gives the spread as reported. The star is where a group is joined.
# OPRD1: Delta-type opioid receptor (OPRD1, Homo sapiens, UniProt P41143)
# CNR1: Cannabinoid receptor 1 (CNR1, Homo sapiens, UniProt P21554)
# Ryanodine receptor 1: Ryanodine receptor 1 (Oncorhynchus mykiss, UniProt A0A8C7UX14)
Molecule,target,test,system,setting,how to read,measurement,result
N[C@@H](CCSN=O)C(=O)O,"Arginine deiminase (arcA, Bacillus cereus, UniProt B7JN59)",irreversible inhibitor,,,,KI,66000 ± 30000 µM
CCOc1ccccc1S(=O)(=O)N1CC(c2nc(-c3ccsc3)no2)C1,"Calcium-activated potassium channel subunit alpha-1, with beta-3 subunit (KCNMA1, Homo sapiens, UniProt Q12791)",,HEK293,30 µM,,activity,inactive
CCCC(C)Sc1nc2c([nH]1)c(=S)n(C)c(=O)n2C (stereo not shown),"PGR (Homo sapiens, UniProt P06401)","reporter gene, antagonist, MMTV-luciferase",T47D/A1-2,"10 µM, 24 h, with: 5 nM progesterone",reference: maximal activity,remaining activity,53%
COc1cc(CN2CCc3c(cc(Cn4ccn(C)c4=N)cc3-c3ccc(F)cc3C)C2=O)cc(OC)c1,"WD repeat-containing protein 5, with MLL1 and RBBP5 (WDR5, Homo sapiens, UniProt P61964)","RBBP5 binding, co-immunoprecipitation",MV4-11,"1 µM, 4 h",,binding,no effect
COc1ccc(Oc2ccc(C(=O)N[C@H](CN3CCN(c4cccc(O)c4)[C@@H](C)C3)C(C)C)cc2)cc1,OPRD1,antagonist,CHO,with: DPDPE,,Ke,1380 ± 1050 nM
CCCCSS(C)(=O)=O,"Gabrg2/GABRB2/Gabra1 (Rattus norvegicus, UniProt P18508+P47870+P62813, C260A/C282A/C312A/C319A/C341A/N289C)","covalent modifier, two-electrode voltage clamp",Xenopus laevis oocytes,"0.5 mM, labelled without GABA, with: GABA EC10",reference: before labelling,GABA current,increased
O=C(O)C[C@@H]1CC[C@H](NC(=O)Cc2cccs2)B(O)O1,"ampC (Burkholderia multivorans, UniProt A0A0H3KN52)",,,"15 min, with: nitrocefin",,turnover number,200
C[C@H]1O[C@@H](n2cnc3c(N)ncnc32)[C@H](O)[C@@H]1O,"bioB (Escherichia coli, UniProt P12996)","enzyme activity, inhibitor",,500 µM,,remaining activity,45%
"Ac-LDEVD-pNA (N-acetyl, C-pNA; pNA = O=[N+]([O-])c1ccc(N*)cc1)","Caspase-8 (CASP8, Homo sapiens, UniProt Q14790)","substrate hydrolysis, substrate, colorimetric",,pH 7.5,,kcat/Km,1330 ± 167 M⁻¹ s⁻¹
N[C@@H](CCCCNP(=O)(O)O)C(=O)O,"Phospholysine phosphohistidine inorganic pyrophosphate phosphatase (LHPP, Homo sapiens, UniProt Q9H008)",enzyme activity,,"concentration not given, 90 min, pH 7.8, with: substrate 100 µM",,substrate hydrolysis,56.3%
CCCCCn1nc(C(=O)NC(C)(C)c2cccc(C(N)=O)c2)c2ccccc21,CNR1,"calcium mobilization, agonist",CHO-K1 expressing Gαq16,,"reference: CP55,940 maximum",Emax,30 ± 6%
CSCC1NC(c2c[nH]c3c(N)ncnc23)[C@@H](O)[C@H]1O (stereo partly shown),"MTAP (Homo sapiens, UniProt Q13126)","binding, thermodynamic cycle",,with: phosphate,,coupling free energy,-2.6 kcal/mol
berbamine,"Heat shock protein HSP 90-alpha, C-terminal domain (HSP90AA1, Homo sapiens, UniProt P07900)","binding, zonal affinity chromatography",,"pH 7.4, 25 °C",,retention factor,15.3
CC(C)(C#N)CCCn1nc(C(=O)NC(C)(C)c2cccc(C(N)=O)c2)c2ccccc21,CNR1,"calcium mobilization, agonist",CHO-K1 expressing Gαq16,,"reference: CP55,940 maximum",Emax,94 ± 2%
Clc1ccc(Cl)c(-c2cc(Cl)c(Cl)cc2Cl)c1,Ryanodine receptor 1,[3H]ryanodine binding,"rainbow trout, skeletal muscle microsomes",,,EC20,1.03 µM
CN1CC[C@@]2(C)c3cc(OC(=O)Nc4ccccc4)ccc3N(C)[C@@H]12,"Cholinesterase (BCHE, Homo sapiens, UniProt P06276)","inhibitor, immobilized enzyme reactor, HPLC-UV",immobilized recombinant human enzyme,"concentration not given, flushing after complete inhibition",,time to full activity recovery,< 2 h
C=CC(=O)NCCCC[C@H](NC(=O)OCc1ccccc1)C(=O)NCCOCCOCCNS(=O)(=O)c1cccc2c(N(C)C)cccc12,"TGM2 (Homo sapiens, UniProt P21980)",,,pH 6.5,,kinact,0.0433 ± 0.00283 s⁻¹
CC[C@H](C)[C@H](NC(=O)[C@H](C)NC(=O)[C@H](CO)NC(=O)[C@@H](NC(=O)[C@H](CCC(=O)O)NC(=O)[C@H](CCC(=O)O)NC(=O)[C@H](CCC(N)=O)NC(=O)[C@H](CCCCN)NC(=O)[C@H](CCCNC(=N)N)NC(=O)[C@@H](N)CCCCN)C(C)C)C(=O)N[C@H](C(=O)N[C@H](C(=O)N[C@@H](CCC(N)=O)C(=O)N[C@@H](CCCNC(=N)N)C(=O)N[C@@H](C)C(=O)N[C@@H](Cc1ccc(O)cc1)C(=O)N[C@@H](CCCNC(=N)N)C(=O)N[C@@H](CCCNC(=N)N)C(=O)N[C@@H](Cc1ccc(O)cc1)C(=O)N[C@@H](CC(C)C)C(=O)N[C@@H](CC(C)C)C(=O)N[C@@H](CCCCN)C(=O)N[C@@H](CCC(N)=O)C(=O)N[C@@H](CCCCN)C(=O)N[C@H](C(=O)N[C@@H](CCCCN)C(=O)N[C@@H](CCCCN)C(=O)O)C(C)C)[C@@H](C)CC)C(C)C,"Calmodulin, C-terminal domain (CAM, Paramecium tetraurelia, UniProt P07463)",,,"3 to 1 µM, pH 7.4, 22 °C, Ca2+-bound CaM residues 76-148",reference: peptide alone,fluorescence emission increase,17%
O=c1cc(-c2ccccc2)oc2cc(O)ccc12,"Cytochrome P450 1A1 (CYP1A1, Homo sapiens, UniProt P04798)","enzyme inactivation, mechanism-based inactivator, EROD",,with: NADPH preincubation,,KI,2.43 µM
anthraquinone-neomycin,poly(dA)•2poly(dT) triplex DNA,isothermal titration calorimetry,,"concentration not given, pH 5.5, 10 °C, KCl 150 mM",,binding enthalpy,-5.4 ± 0.2 kcal/mol
NC(=O)CN1CCC[C@@H](CNC(=O)c2nn(Cc3ccc(F)cc3)c3ccccc23)C1,CNR1,"calcium mobilization, agonist",CHO-K1 expressing Gαq16,,"reference: CP55,940 maximum",Emax,109 ± 3%
Nc1ncnc2c1ncn2[C@H]1C[C@H](O)[C@@H](COP(=O)(O)OP(=O)(O)OP(=O)(O)O)O1,"DNA polymerase IV, with DNA (dbh, Saccharolobus solfataricus, UniProt Q97W02)","nucleotide incorporation opposite dC, single-turnover extension of lesion bypass product",,"lesion bypass extension, with: 21/26-mer dG-C8-N-ABA primer-template",,misincorporation frequency,3.8%
CC(C)(C)C1CCCC(C(C)(C)C)C1O (stereo not shown),"Hcn1 (Mus musculus, UniProt O88704)","V1/2 shift, two-electrode voltage clamp",Xenopus oocytes,,reference: cyclohexanol over corresponding phenol,decrease in efficacy,> 4 fold
CC1(C)Cc2c(sc(NC(=O)c3ccn[nH]3)c2C(N)=O)C(C)(C)O1,"CFTR (Homo sapiens, UniProt P13569, F312A)","channel current, potentiator, inside-out patch clamp","CHO, transfected","20 µM, with: ATP 2 mM",reference: initial current in ATP,current ratio,~1.3
COc1cc(/C=C/C(=O)CC(=O)/C=C/c2ccc(O)c(OC)c2)ccc1O,"Protein kinase C theta type, C1B domain (Mus musculus, UniProt Q02111)",,buffer,"5×1 µM, 1 h, 25 °C, protein excess",,emission maximum,561 nm
C=C1[C@@H](C)[C@H]2[C@H](Cc3ccccc3)NC(=O)[C@]23[C@H](OC(C)=O)/C=C/[C@@](C)(O)C(=O)[C@@H](C)C/C=C/[C@H]3[C@@H]1O,integrin alphaM beta2 (human),"ligand binding, inhibitor, flow cytometry",human neutrophils,"concentration not given, 1 h, 37 °C, integrin clustering inhibitor, with: Alexa 488-labelled fibrinogen","reference: no inhibitor, lower means less binding",bound fibrinogen fluorescence,476 ± 50 MFI
COC(=O)Nc1cc(CC2c3cc(NC(=O)OC)c(OC)cc3CCN2CC(=O)NCc2ccccc2)ccc1OC (stereo not shown),"HCRTR1 (Homo sapiens, UniProt O43613)",,human cells,concentration not given,,activity,inactive
KQTARKSTGGWW (dodecanoyl-Lys9),"HDAC8 (Homo sapiens, UniProt Q9BY41)","substrate, HPLC",peptide,"1 µM, 1 h, pH 8, 37 °C",,kcat/Km,177 ± 7 M⁻¹ s⁻¹
Clc1ccc(-c2cc(Cl)c(Cl)cc2Cl)c(Cl)c1,Ryanodine receptor 1,[3H]ryanodine binding,"rainbow trout, skeletal muscle microsomes",,,EC20,15.5 µM
CC(C)[C@H](NC(=O)[C@H](CCC(=O)O)NC(=O)[C@H](CC(=O)O)NC(=O)[C@H](C)NC(=O)[C@H](CC(=O)O)NC(=O)[C@H](CC(N)=O)NC(=O)[C@H](CC(=O)O)NC(=O)[C@H](CO)NC(=O)[C@H](CO)NC(=O)[C@@H](NC(=O)[C@H](CCC(N)=O)NC(=O)[C@H](Cc1ccccc1)NC(=O)[C@H](CC(=O)O)NC(=O)[C@H](CCC(=O)O)NC(=O)[C@H](CC(=O)O)NC(=O)[C@@H](NC(=O)[C@H](CO)NC(=O)[C@H](CCC(=O)O)NC(=O)[C@@H](N)CC(=O)O)C(C)C)C(C)C)C(=O)N[C@@H](C)C(=O)N[C@@H](CCC(=O)O)C(=O)N[C@@H](CCC(=O)O)C(=O)N[C@@H](Cc1ccccc1)C(=O)N[C@@H](CC(=O)O)C(=O)N[C@@H](CO)C(=O)O,"H2A-H2B(30-130) H2B Y45A/M62A, Saccharomyces cerevisiae",ITC,,,reference: mutant over wild-type histones Kd,affinity loss,41 fold
Clc1ccc(Cl)c(-c2cc(Cl)ccc2Cl)c1,Ryanodine receptor 1,"[3H]ryanodine binding, activator",trout muscle microsomes,concentration not given,reference: DMSO,Emax,~250%
C[C@H]1CCCC(=O)CCC/C=C/c2cc(O)cc(O)c2C(=O)O1,"zhd101 (Clonostachys rosea, UniProt Q8NKB0)","substrate, HPLC",,"10 min, pH 5.5, 37 °C, 1% acetonitrile",,Km,28.2 ± 3.18 mM
Clc1cc(Cl)c(-c2cc(Cl)c(Cl)cc2Cl)cc1Cl,Ryanodine receptor 1,[3H]ryanodine binding,"rainbow trout, skeletal muscle microsomes",up to 20 µM,reference: DMSO,Emax,167 ± 14.6%
CC(C)[C@@H](CN1CCN(c2cccc(O)c2)[C@@H](C)C1)NC(=O)c1ccc(Oc2ccccc2O)cc1,OPRD1,antagonist,CHO,with: DPDPE,,Ke,960 ± 220 nM

# Excerpt of the above:
Molecule,target,test,system,setting,how to read,measurement,result
CCCC(C)Sc1nc2c([nH]1)c(=S)n(C)c(=O)n2C (stereo not shown),"PGR (Homo sapiens, UniProt P06401)","reporter gene, antagonist, MMTV-luciferase",T47D/A1-2,"10 µM, 24 h, with: 5 nM progesterone",reference: maximal activity,remaining activity,53%
N[C@@H](CCSN=O)C(=O)O,"Arginine deiminase (arcA, Bacillus cereus, UniProt B7JN59)",irreversible inhibitor,,,,KI,66000 ± 30000 µM
